Published values from different studies.
A part holds a random share of what one study measured.

Block 1
Target: Phosphate system positive regulatory protein PHO4, full length, GST-tagged (PHO4, Saccharomyces cerevisiae, UniProt P07270, residues 1-312)
Method: competition protein-binding microarray
Molecule type: double-stranded DNA, one strand shown
Matrix: in vitro
Tested at: 2 µM
Setting: whole 60-bp probe, lowest competitor level
With: Cbf1 competitor, 0.05 µM
Reading: higher = stronger binding
Target sequence (chain): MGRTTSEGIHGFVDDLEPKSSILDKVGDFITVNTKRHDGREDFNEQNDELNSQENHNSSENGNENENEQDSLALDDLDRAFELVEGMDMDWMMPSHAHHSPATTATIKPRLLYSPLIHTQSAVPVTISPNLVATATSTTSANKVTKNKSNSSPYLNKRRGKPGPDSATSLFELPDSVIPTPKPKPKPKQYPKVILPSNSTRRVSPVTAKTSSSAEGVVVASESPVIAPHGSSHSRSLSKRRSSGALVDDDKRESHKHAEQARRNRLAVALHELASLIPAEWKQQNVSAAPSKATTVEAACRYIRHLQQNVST
Sequence	fluorescence intensity [a.u.]
CTTCTGTAAATTTGTATAGTGGGTGGACGCGCCCCGGTCTTGATTCGCTTGACGCTGCTG	4870
CTTCTGTAAATTTTTCACGTGAGTTGACGCGCCCCGGTCTTGATTCGCTTGACGCTGCTG	9780
GATTGTGGAAAGAAGCATGTGGTTTTCAAAAATTGGGTCTTGATTCGCTTGACGCTGCTG	9980

Block 2
Target: Interferon regulatory factor 7, full length, phosphomimetic (IRF7, Homo sapiens, UniProt Q92985, residues 1-503, S101K/S471D/S472D/S475D/S476D/S477D/S483D/S484D/S487D)
Chain of UniProt Q92985 (whole entry, unmodified, looked up): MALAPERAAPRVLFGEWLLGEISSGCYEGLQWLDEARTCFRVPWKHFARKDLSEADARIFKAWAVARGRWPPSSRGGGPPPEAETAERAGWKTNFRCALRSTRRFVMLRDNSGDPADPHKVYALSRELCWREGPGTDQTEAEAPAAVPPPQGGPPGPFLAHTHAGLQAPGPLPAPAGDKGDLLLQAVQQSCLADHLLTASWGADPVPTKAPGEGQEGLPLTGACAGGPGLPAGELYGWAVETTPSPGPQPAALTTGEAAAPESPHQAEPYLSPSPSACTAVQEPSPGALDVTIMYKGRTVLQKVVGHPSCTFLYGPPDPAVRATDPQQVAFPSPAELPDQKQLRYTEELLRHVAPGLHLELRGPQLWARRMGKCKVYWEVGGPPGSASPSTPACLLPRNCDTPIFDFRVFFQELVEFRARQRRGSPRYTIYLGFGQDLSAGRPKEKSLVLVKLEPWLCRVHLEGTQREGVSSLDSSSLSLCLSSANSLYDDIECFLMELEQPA
Method: protein-binding microarray
Molecule type: double-stranded DNA, one strand shown
Matrix: in vitro
Tested at: 250 nM
Setting: 60-bp whole probe
With: salmon DNA 0.4 mg/ml
Relative to: random background probes
Reading: higher = stronger binding
Sequence	log fluorescence
GCCTAGCACTTAGGTTTCCTTTCCCTTAAGTGCTAGGTCTTGATTCGCTTGACGCTGCTG	5.67 z-score
GCCTAGCACTAAGGTTTCCTTCTCCTTTAGTGCTAGGTCTTGATTCGCTTGACGCTGCTG	2.71 z-score
GCCTAGCACTTAGGACTGGACTTTCGGTAAGTGCTAGTCTTGATTCGCTTGACGCTGCTG	-0.109 z-score

Block 3
Target: Histone acetyltransferase KAT6A, winged helix 1, GST fusion (KAT6A, Homo sapiens, UniProt Q92794, residues 1-85)
Method: protein binding microarray
Molecule type: double-stranded DNA, one strand shown
Matrix: in vitro
Tested at: not given
Setting: 8-mer, flanks averaged, mean of 2 arrays, mostly near background
Relative to: not given
Reading: higher = stronger binding
Residues (chain): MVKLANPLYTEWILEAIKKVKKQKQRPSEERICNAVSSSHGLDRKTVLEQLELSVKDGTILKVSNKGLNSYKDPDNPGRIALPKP
Sequence	E-score
AGACTCAG	-0.186
AGCTATTA	-0.115
AGTCATGG	-0.164
CAGCCACA	-0.223

Further values, each from its own experiment
Molecule	target	test	test system	conditions	how to read	measurement	result
PhoQ, residues 284 288 289 292 302 303 SVTLVV	PhoP, residues 12 14 15 18 19 GQAIL (Escherichia coli, UniProt P23836)	Sort-seq, refers to: YFP reporter	E. coli	PhoQ-PhoP variant library, with: 10 µM Mg2+	relative to: high Mg2+ state, higher = stronger signaling	fold induction	11.4

Excerpt of the above (further values, each from its own experiment):
Molecule	target	test	test system	conditions	how to read	measurement	result
PhoQ, residues 284 288 289 292 302 303 SVTLVV	PhoP, residues 12 14 15 18 19 GQAIL (Escherichia coli, UniProt P23836)	Sort-seq, refers to: YFP reporter	E. coli	PhoQ-PhoP variant library, with: 10 µM Mg2+	relative to: high Mg2+ state, higher = stronger signaling	fold induction	11.4
